Published values pooled from the literature.
Compare with care: the assays were run in different laboratories. “And” joins repeats or separate records; there may be more than shown. ± marks the error that the study gave.
Spike glycoprotein: Spike glycoprotein (Severe acute respiratory syndrome coronavirus 2, UniProt P0DTC2)
rep main protease: Replicase polyprotein 1ab, main protease (rep, Severe acute respiratory syndrome coronavirus 2, UniProt P0DTD1)
B1: cytochrome c peroxidase H52N; sequence looked up; chain TTPLVHVASVEKGRSYEDFQKVYNAIALKLREDDEYDNYIGYGPVLVRLAWNTSGTWDKHDNTGGSYGGTYRFKKEFNDPSNAGLQNGFKFLEPIHKEFPWISSGDLFSLGGVTAVQEMQGPKIPWRCGRVDTPEDTTPDNGRLPDADKDADYVRTFFQRLNMNDREVVALMGAHALGKTHLKNSGYEGPWGAANNVFTNEFYLNLLNEDWKLEKNDANNEQWDSKSGYMMLPTDYSLIQDPKYLSIVKEYANDQDKFFKDFSKAFEKLLENGITFPKDAPSPFIFKTLEEQGL
B2: cytochrome c peroxidase H52D; sequence looked up; chain TTPLVHVASVEKGRSYEDFQKVYNAIALKLREDDEYDNYIGYGPVLVRLAWDTSGTWDKHDNTGGSYGGTYRFKKEFNDPSNAGLQNGFKFLEPIHKEFPWISSGDLFSLGGVTAVQEMQGPKIPWRCGRVDTPEDTTPDNGRLPDADKDADYVRTFFQRLNMNDREVVALMGAHALGKTHLKNSGYEGPWGAANNVFTNEFYLNLLNEDWKLEKNDANNEQWDSKSGYMMLPTDYSLIQDPKYLSIVKEYANDQDKFFKDFSKAFEKLLENGITFPKDAPSPFIFKTLEEQGL
Chain of UniProt P0A8T7 (whole entry, looked up): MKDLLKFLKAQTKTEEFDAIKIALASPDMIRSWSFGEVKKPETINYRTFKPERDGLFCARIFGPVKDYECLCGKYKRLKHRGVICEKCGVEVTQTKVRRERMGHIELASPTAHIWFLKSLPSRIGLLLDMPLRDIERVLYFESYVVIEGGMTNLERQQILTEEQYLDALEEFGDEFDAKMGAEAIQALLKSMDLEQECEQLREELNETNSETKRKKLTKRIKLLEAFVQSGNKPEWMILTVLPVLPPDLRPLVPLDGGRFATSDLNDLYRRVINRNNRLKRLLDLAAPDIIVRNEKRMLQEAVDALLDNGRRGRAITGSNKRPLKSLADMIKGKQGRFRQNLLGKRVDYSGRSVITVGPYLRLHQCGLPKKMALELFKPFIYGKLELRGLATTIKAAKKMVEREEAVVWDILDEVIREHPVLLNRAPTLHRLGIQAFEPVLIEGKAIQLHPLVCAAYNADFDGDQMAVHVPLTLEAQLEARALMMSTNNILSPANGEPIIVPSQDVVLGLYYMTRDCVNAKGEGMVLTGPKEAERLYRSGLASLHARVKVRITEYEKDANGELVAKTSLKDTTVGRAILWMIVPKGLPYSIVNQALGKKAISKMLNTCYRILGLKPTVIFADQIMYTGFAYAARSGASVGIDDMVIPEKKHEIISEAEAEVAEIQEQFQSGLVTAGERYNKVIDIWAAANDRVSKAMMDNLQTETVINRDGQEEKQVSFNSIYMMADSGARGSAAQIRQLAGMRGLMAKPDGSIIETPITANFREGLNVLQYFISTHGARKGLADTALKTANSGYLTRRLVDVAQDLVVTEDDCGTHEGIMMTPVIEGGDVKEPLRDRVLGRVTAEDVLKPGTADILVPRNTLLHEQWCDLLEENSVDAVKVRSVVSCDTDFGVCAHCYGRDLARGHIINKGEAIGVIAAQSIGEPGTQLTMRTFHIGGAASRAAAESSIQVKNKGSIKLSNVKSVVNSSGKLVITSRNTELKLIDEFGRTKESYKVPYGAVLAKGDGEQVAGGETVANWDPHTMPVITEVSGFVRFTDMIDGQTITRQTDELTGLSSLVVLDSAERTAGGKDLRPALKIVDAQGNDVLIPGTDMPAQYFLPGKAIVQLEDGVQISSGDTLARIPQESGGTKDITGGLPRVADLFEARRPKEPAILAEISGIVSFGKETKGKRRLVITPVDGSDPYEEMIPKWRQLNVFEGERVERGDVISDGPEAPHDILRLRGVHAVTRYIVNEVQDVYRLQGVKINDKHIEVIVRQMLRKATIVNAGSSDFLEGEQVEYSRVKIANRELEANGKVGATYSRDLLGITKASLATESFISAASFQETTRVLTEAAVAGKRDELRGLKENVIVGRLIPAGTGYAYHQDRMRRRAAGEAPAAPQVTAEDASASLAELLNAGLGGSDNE
Chain of UniProt Q9EXR0 (whole entry, looked up): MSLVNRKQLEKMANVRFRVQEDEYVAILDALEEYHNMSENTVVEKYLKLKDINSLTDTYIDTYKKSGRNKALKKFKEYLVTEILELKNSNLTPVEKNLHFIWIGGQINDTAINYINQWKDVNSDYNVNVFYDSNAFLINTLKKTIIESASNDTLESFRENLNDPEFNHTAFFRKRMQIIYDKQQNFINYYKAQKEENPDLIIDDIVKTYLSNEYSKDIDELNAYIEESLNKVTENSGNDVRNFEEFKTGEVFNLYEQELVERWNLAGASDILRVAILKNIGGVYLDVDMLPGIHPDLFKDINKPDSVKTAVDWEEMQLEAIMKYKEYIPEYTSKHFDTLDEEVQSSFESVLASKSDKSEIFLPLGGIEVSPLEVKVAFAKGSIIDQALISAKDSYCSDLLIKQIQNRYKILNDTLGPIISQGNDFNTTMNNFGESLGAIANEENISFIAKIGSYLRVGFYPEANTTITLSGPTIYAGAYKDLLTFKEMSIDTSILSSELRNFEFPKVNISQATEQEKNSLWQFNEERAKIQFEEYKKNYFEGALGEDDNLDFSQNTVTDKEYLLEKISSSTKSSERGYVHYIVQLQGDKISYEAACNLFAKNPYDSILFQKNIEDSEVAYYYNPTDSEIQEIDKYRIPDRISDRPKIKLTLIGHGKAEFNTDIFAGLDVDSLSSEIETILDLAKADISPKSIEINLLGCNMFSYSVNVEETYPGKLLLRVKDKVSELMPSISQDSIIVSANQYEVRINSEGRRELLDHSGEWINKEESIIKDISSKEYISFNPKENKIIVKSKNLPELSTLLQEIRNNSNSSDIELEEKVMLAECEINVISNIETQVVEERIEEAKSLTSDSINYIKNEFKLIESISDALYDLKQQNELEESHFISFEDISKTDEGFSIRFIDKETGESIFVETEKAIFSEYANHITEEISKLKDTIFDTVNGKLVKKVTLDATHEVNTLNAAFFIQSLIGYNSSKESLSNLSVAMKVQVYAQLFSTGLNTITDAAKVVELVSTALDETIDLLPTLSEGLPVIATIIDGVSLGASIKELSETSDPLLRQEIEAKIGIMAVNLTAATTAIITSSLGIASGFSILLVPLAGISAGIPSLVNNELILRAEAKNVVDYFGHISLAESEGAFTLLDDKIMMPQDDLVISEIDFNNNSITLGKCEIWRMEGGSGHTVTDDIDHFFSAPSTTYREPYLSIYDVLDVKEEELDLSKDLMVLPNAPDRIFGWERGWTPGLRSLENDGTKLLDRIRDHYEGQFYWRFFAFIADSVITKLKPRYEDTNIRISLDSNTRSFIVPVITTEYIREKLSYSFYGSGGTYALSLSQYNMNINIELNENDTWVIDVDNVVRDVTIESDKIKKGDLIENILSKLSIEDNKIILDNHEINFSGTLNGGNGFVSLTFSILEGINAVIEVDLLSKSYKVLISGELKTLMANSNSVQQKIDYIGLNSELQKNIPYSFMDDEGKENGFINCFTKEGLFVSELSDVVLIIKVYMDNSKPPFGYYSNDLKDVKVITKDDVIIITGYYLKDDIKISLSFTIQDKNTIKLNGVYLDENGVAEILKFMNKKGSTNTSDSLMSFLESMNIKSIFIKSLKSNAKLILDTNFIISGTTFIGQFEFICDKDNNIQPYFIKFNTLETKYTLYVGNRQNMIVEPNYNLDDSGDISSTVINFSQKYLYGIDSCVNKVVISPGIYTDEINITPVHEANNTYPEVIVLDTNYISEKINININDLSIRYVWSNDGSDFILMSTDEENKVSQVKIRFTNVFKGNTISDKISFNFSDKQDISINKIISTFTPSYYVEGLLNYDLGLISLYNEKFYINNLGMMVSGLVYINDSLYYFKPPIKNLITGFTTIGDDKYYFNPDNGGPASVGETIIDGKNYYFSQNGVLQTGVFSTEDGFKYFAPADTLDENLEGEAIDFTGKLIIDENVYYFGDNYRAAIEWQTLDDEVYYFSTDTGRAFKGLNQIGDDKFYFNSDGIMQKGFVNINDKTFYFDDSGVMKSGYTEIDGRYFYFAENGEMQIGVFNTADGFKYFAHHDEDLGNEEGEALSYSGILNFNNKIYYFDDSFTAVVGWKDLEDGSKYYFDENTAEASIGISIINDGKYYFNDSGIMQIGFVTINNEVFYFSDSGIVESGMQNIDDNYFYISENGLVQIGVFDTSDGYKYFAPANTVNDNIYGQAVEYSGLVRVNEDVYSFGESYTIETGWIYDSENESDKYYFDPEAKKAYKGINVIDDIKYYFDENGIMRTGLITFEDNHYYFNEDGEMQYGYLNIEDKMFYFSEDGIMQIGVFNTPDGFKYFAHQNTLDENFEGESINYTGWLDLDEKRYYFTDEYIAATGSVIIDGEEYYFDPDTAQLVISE
Chain of UniProt P42264 (whole entry, looked up): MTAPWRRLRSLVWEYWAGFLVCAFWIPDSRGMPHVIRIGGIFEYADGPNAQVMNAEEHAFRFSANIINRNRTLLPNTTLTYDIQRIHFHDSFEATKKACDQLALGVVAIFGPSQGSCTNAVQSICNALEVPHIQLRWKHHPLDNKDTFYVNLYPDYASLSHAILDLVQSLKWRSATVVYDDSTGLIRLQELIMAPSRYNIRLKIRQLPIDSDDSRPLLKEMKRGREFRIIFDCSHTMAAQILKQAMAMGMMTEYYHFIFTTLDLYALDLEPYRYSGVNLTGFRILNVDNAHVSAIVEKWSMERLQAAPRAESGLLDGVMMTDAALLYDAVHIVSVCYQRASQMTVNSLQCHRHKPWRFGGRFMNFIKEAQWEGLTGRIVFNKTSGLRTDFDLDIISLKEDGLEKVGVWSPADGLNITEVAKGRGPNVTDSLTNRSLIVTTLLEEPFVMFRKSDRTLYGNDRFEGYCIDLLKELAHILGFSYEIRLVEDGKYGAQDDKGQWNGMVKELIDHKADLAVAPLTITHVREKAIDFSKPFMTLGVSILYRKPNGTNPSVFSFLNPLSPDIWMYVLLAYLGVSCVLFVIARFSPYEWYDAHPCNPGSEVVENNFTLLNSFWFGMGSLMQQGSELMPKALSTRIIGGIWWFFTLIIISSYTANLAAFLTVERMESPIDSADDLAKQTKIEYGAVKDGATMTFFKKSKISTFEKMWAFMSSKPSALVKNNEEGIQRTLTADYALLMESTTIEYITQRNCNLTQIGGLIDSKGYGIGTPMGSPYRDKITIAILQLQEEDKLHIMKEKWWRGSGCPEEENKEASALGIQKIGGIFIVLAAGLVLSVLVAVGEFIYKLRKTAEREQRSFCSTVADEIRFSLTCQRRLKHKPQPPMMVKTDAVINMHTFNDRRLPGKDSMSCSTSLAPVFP

CSCC[C@H](NC(=O)[C@@H](N)CCC(=O)O)C(=O)N[C@@H](Cc1c[nH]cn1)C(=O)N[C@@H](CCC(N)=O)C(=O)N[C@@H](Cc1c[nH]c2ccccc12)C(=O)N[C@@H](CCCNC(=N)N)C(=O)N[C@@H](CCCNC(=N)N)C(=O)N[C@@H](Cc1c[nH]c2ccccc12)C(=O)O  Ki (Toxin B, glucosyltransferase domain (Clostridioides difficile, UniProt A0A9R0CDJ3); glucosyltransferase activity, inhibitor, UDP-Glo glucosyltransferase luminescence; added: Rac1 and UDP-glucose): 919 µM
Cn1cnc(Cn2c(=O)[nH]/c(=N\c3cc4cn(C)nc4cc3Cl)n(Cc3cc(F)c(F)cc3F)c2=O)n1  IC50 (Cytochrome P450 2B6 (CYP2B6, Homo sapiens, UniProt P20813); inhibitor; human liver microsomes; 30 min preincubation, preincubation without NADPH, added: efavirenz 5 µM): > 100000 nM
B1 (cytochrome c peroxidase H52N)  Kd (cyanide binding; spectrophotometric titration; pH 6.0, 25 °C, added: cyanide): 9400 µM
CNC(=O)[C@@H](NC(=O)[C@H](CC(C)C)[C@H](O)C(=O)NO)C(C)(C)C  remaining activity (Daboia russelii venom proteases (SVMP); protease activity, inhibitor; GA population; 0.1 µM, added: azocasein substrate; relative to: venom alone): 94% and 96.3% and 96.6%
CC(C)C[C@H](NC(=O)[C@@H](NC(=O)[C@@H](N)Cc1c[nH]cn1)[C@@H](C)O)C(=O)N[C@@H](CCC(=O)O)C(=O)N[C@@H](Cc1c[nH]c2ccccc12)C(=O)N[C@@H](CCCNC(=N)N)C(=O)N[C@@H](CCCNC(=N)N)C(=O)N[C@@H](Cc1c[nH]c2ccccc12)C(=O)O  Ki (Toxin B, glucosyltransferase domain (tcdB, Clostridioides difficile, UniProt Q9EXR0)): 163 µM
Cc1cc(O[C@@H]2O[C@H](CO)[C@@H](O)[C@H](O)[C@H]2O)c2c(c1)C(=O)c1cc(O)cc(O)c1C2=O  Kd (Spike glycoprotein; binding, biolayer interferometry): 37.9 µM
Cn1cnc(Cn2c(=O)[nH]/c(=N\c3cc4cn(C)nc4cc3Cl)n(Cc3cc(F)c(F)cc3F)c2=O)n1  patients with adverse event (human, normal renal function; oral, 375 mg, hypertriglyceridaemia TEAE, Moderate severity): 0%
CC(C)C[C@H](NC(=O)[C@H](Cc1ccccc1)NC(=O)c1cnccn1)B1O[C@@H]2C[C@@H]3C[C@@H](C3(C)C)[C@]2(C)O1  inhibition (rep main protease; viral replication, Gluc reporter; SARS-CoV-2; 20 µM): -4.14%
N[C@@H](C[C@]1(C(=O)O)C[C@H]2OC[C@@H](O)[C@@H](O)[C@H]2O1)C(=O)O  Ki (Glutamate receptor ionotropic, kainate 3 (Rattus norvegicus, UniProt P42264); binding, [3H]kainate displacement; HEK293T/17 membranes; added: [3H]kainate): 3 µM
C[C@@H]1O[C@@H](O[C@H]2C(=O)c3c(O)cc(O)cc3O[C@@H]2c2ccc(O)c(O)c2)[C@H](O)[C@H](O)[C@H]1O  Kd (Spike glycoprotein; binding, biolayer interferometry): 32.5 µM
CC(=O)O[C@@H]1[C@H](N)[C@@H](OP(=O)(O)O)[C@@]2(C(=O)O)CS[C@@](O)(C(N)=O)[C@@H]1O2  Kd (DNA-directed RNA polymerase subunit beta' / DNA-directed RNA polymerase subunit beta (rpoC/rpoB, Escherichia coli, UniProt P0A8T7+P0A8V2); binding to elongation complex, 6-MI fluorescence titration; wild-type RNAP; 2′-deoxy RNA 3′-end Adenine): 2.1 ± 0.9 µM
CC[C@H](C)[C@H](NC(=O)[C@H](CC(C)C)NC(=O)[C@H](CO)NC(=O)[C@H](Cc1c[nH]cn1)NC(=O)[C@@H](NC(=O)[C@H](CC(C)C)NC(=O)[C@H](CO)NC(=O)[C@@H](NC(=O)[C@H](Cc1ccc(O)cc1)NC(=O)[C@H](CC(N)=O)NC(=O)[C@H](CC(N)=O)NC(=O)[C@@H](NC(=O)[C@H](CCC(=O)O)NC(=O)[C@H](CCCNC(=N)N)NC(=O)[C@H](CC(=O)O)NC(=O)[C@H](Cc1c[nH]c2ccccc12)NC(=O)[C@H](CCC(=O)O)NC(=O)[C@H](CCSC)NC(=O)[C@H](Cc1c[nH]c2ccccc12)NC(C)=O)[C@@H](C)CC)[C@@H](C)O)[C@@H](C)CC)C(=O)N[C@@H](CCC(=O)O)C(=O)N[C@@H](CCC(=O)O)C(=O)N[C@@H](CO)C(=O)N[C@@H](CCC(N)=O)C(=O)N[C@@H](CC(N)=O)C(=O)N[C@@H](CCC(N)=O)C(=O)N[C@@H](CCC(N)=O)C(=O)N[C@@H](CCC(=O)O)C(=O)N[C@@H](CCCCN)C(=O)N[C@@H](CC(N)=O)C(=O)N[C@@H](CCC(=O)O)C(=O)N[C@@H](CCC(N)=O)C(=O)N[C@@H](CCC(=O)O)C(=O)N[C@@H](CC(C)C)C(=O)N[C@@H](CC(C)C)C(=O)NCC(=O)N[C@@H](CO)C(=O)NCC(=O)N[C@@H](CSCC(=O)O[C@H]1CC[C@@]2(C)C(=CC[C@H]3[C@@H]4CC[C@H]([C@H](C)CCCC(C)(C)O)[C@@]4(C)CC[C@@H]32)C1)C(N)=O  Kd (monolayer insertion, Langmuir surface pressure; POPC:cholesterol monolayer; 25 °C, ratio 2:1, initial pressure 20.5 mN/m): 0.248 ± 0.0548 µM
Nc1ncnc2c([C@@H]3N[C@H](CO)[C@@H](O)[C@H]3O)c[nH]c12  inhibition (Nipah henipavirus; viral replication; HeLa, Malaysia; 25 µM): 10.7%
CC(=O)O[C@@H]1[C@@H](O)[C@H](O[C@H]2CC[C@]34C[C@]35CC[C@]3(C)[C@@H]([C@@]6(C)CC[C@@H](C(C)(C)O)O6)[C@@H](O)C[C@@]3(C)[C@@H]5C[C@H](O[C@@H]3O[C@H](CO)[C@@H](O)[C@H](O)[C@H]3O)[C@H]4C2(C)C)OC[C@H]1O  Kd (Spike glycoprotein; binding): 168 µM
CC[C@H](C)[C@H](NC(=O)[C@H](CC(C)C)NC(=O)[C@H](Cc1c[nH]c2ccccc12)NC(=O)[C@H](CCC(N)=O)NC(=O)[C@@H](NC(=O)[C@H](Cc1ccccc1)NC(=O)[C@H](C)NC(=O)[C@H](CCCCNC(=O)COCCOCCNC(=O)COCCOCCNC(=O)CC[C@H](NC(=O)CCCCCCCCCCCCCCCCCCC(=O)O)C(=O)O)NC(=O)[C@H](CCC(N)=O)NC(=O)[C@H](C)NC(=O)[C@@H](NC(=O)[C@H](CCCCN)NC(=O)[C@H](CC(=O)O)NC(=O)[C@H](CC(C)C)NC(=O)C(C)(C)NC(=O)[C@@H](NC(=O)[C@H](CO)NC(=O)[C@H](Cc1ccc(O)cc1)NC(=O)[C@H](CC(=O)O)NC(=O)[C@H](CO)NC(=O)[C@@H](NC(=O)[C@H](Cc1ccccc1)NC(=O)[C@@H](NC(=O)CNC(=O)[C@H](CCC(=O)O)NC(=O)C(C)(C)NC(=O)[C@@H](N)Cc1ccc(O)cc1)[C@@H](C)O)[C@@H](C)O)[C@@H](C)CC)[C@@H](C)CC)C(C)C)C(=O)N[C@@H](C)C(=O)NCC(=O)NCC(=O)N1CCC[C@H]1C(=O)N[C@@H](CO)C(=O)N[C@@H](CO)C(=O)NCC(=O)N[C@@H](C)C(=O)N1CCC[C@H]1C(=O)N1CCC[C@H]1C(=O)N1CCC[C@H]1C(=O)N[C@@H](CO)C(N)=O  subjects with adverse events (refers to: Vomiting; healthy subjects; 5/5/8/10 mg titrated, multiple ascending dose): 42.9%
O=C(N[C@@H]1CCCc2c1[nH]c1ccc(Cl)cc21)c1ccccn1  IC50 (HEK293T; reporter gene, firefly luciferase; 24 h, added: Marburg VP24): 10 nM
O=C1c2c(O)cccc2[C@@H]([C@@H]2O[C@H](CO)[C@@H](O)[C@H](O)[C@H]2O)c2cc(CO)cc(O)c21  inhibition (rep main protease; viral replication, mKate2 reporter; SARS-CoV-2; 20 µM): -0.203%
CC[C@H](CC[C@@H](C)[C@H]1CC[C@H]2[C@@H]3CC=C4C[C@@H](O[C@@H]5O[C@H](CO)[C@@H](O)[C@H](O)[C@H]5O)CC[C@]4(C)[C@H]3CC[C@]12C)C(C)C  Kd (Spike glycoprotein; binding, biolayer interferometry): 130 µM
B2 (cytochrome c peroxidase H52D)  Kd (cyanide binding; spectrophotometric titration; pH 6.0, 25 °C, added: cyanide): 3000 µM

Repeated from above:
CC(C)C[C@H](NC(=O)[C@@H](NC(=O)[C@@H](N)Cc1c[nH]cn1)[C@@H](C)O)C(=O)N[C@@H](CCC(=O)O)C(=O)N[C@@H](Cc1c[nH]c2ccccc12)C(=O)N[C@@H](CCCNC(=N)N)C(=O)N[C@@H](CCCNC(=N)N)C(=O)N[C@@H](Cc1c[nH]c2ccccc12)C(=O)O  Ki (Toxin B, glucosyltransferase domain (tcdB, Clostridioides difficile, UniProt Q9EXR0)): 163 µM
Cn1cnc(Cn2c(=O)[nH]/c(=N\c3cc4cn(C)nc4cc3Cl)n(Cc3cc(F)c(F)cc3F)c2=O)n1  patients with adverse event (human, normal renal function; oral, 375 mg, hypertriglyceridaemia TEAE, Moderate severity): 0%
CC(=O)O[C@@H]1[C@H](N)[C@@H](OP(=O)(O)O)[C@@]2(C(=O)O)CS[C@@](O)(C(N)=O)[C@@H]1O2  Kd (DNA-directed RNA polymerase subunit beta' / DNA-directed RNA polymerase subunit beta (rpoC/rpoB, Escherichia coli, UniProt P0A8T7+P0A8V2); binding to elongation complex, 6-MI fluorescence titration; wild-type RNAP; 2′-deoxy RNA 3′-end Adenine): 2.1 ± 0.9 µM
